Measured values from different studies.
Each line is one published result; not all experiments were run side by side. Values joined by “and” are separate records of one study, mostly repeats; a detail may differ. Numbers after ± are the reported error.

SMILES | cell line | test | test system | conditions | scale | quantity | value
CCCCN1C[C@H](O)[C@@H](O)[C@@H](O)[C@H]1CO | sample F patient fibroblasts | Gb3 level lowering, LC-MS/MS, item: Gb3 d18:1/24:0 | – | 216 h | – | IC50 | 9600 nM
Cn1cc(Nc2nccc(-c3ccc4c(c3)CN(C3COC3)CC[C@H]4NC(=O)c3cn(C(C)(C)C)nn3)n2)cn1 | mouse splenic B cells | item: IL-9 signalling | – | 30 mg/kg, IgD-activated in vivo | relative to: vehicle, direction not given | pathway activation z-score | 1.63
C=Cc1c(C)c2cc3nc(c(CC(=O)O)c4[nH]c(cc5nc(cc1[nH]2)C(C)=C5CC)c(C)c4C(=O)O)[C@@H](CCC(=O)O)[C@@H]3C | 4T1 | Annexin V-FITC/PI flow cytometry | – | concentration not given | – | late apoptotic and necrotic cells | 26.5% and 27.3% and 27.9%
Cc1cnc(NC2CCOCC2)nc1-n1cnc(C(=O)NC(CN)c2cc(F)cc(Cl)c2)c1 (stereo not shown) | Rec1 | flow cytometry | – | 1 µM, 72 h | – | sub-G0 cells | 1.3%
NC(=O)NO | HCT-116 | cell growth, live-cell imaging | – | 250 µM, control at 90% confluence | – | cell confluence | 23 ± 4.3%
CC(C)C[C@@H]1NC(=O)[C@H](CC(C)C)NC(=O)[C@H](Cc2c[nH]c3ccccc23)NC(=O)[C@H](CO)NC(=O)[C@H](Cc2c[nH]c3ccccc23)NC(=O)[C@@H]2CCCN2C(=O)[C@H](CC(C)C)NC(=O)[C@H](Cc2c[nH]cn2)NC(=O)[C@@H]2CCCN2C(=O)[C@H](CC(N)=O)NC(=O)[C@H](C)NC(=O)[C@H](Cc2ccc(O)cc2)NC(=O)[C@H](CS)NC(=O)[C@H](CCCCNC(=O)CN2CCN(CC(=O)O)CCN(CC(=O)O)CCN(CC(=O)O)CC2)NC1=O [lutetium-177 labelled] | 4T1 | flow cytometry | – | concentration not given, 72 h | – | viability decrease | 53.4 ± 3.01%
COC(=O)[C@]12CCC(C)(C)C[C@H]1[C@H]1C(=O)C=C3[C@@]4(C)C=C(C#N)C(=O)C(C)(C)[C@@H]4CC[C@@]3(C)[C@]1(C)CC2 | HepG2 | phospholipidosis | – | 24 h | – | representative mode point of departure | 0.155 µM
OCc1ccc(-c2nn(Cc3cccc(F)c3)c3ccccc23)o1 | RBE | cell viability, CellTiter-Glo | – | – | – | IC50 | 1180 nM
C[C@H](CCC(=O)NCCS(=O)(=O)O)[C@H]1CC[C@H]2[C@@H]3CC[C@@H]4C[C@H](O)CC[C@]4(C)[C@H]3CC[C@]12C | human PKD renal epithelial cells | cell counting | – | 20 µM, 24 h | relative to: untreated | proliferation increase | 36%
COc1ccc2c(c1)CN(C(=O)CCN1CCC(Cc3ccccc3)CC1)CC[S@@+]2[O-] | hiPSC-derived cardiomyocytes | – | – | concentration not given | – | APD90 prolongation | ~30%
Cc1nc(NC(=O)N2CCC[C@H]2C(N)=O)sc1-c1ccnc(C(C)(C)C(F)(F)F)c1 | EFM-19 | cell growth, CellTiter-Glo | – | 120 h | – | Hill coefficient GR curve | 1.01
Cc1cccc(-c2[nH]c(CNc3ccccc3F)nc2-c2ccc3ncnn3c2)n1 | bone marrow CD138+ myeloma cells | XTT | – | 0.8 µM, phenol red-free RPMI | – | viability | 20%
Cn1cc(-c2ccc(-c3cncc(Cl)c3N3CCC4(CCNC4=O)CC3)cc2)cn1 | COLO 205 | gene expression, microarray, item: DPP4 mRNA | – | concentration not given, 6 h | relative to: untreated cells | log2 fold change | 1.98
NC(=O)NOCCCCCCCCCCCC[P+](c1ccccc1)(c1ccccc1)c1ccccc1.O=C([O-])C(F)(F)F | HCT-116 | cell growth, live-cell imaging | – | 1.5 µM, control at 90% confluence | – | cell confluence | 65.4 ± 6.25%
O=C(/C=C/C=C/C=C/C1CCCCC1)NC1=C[C@@](O)(/C=C/C=C/C=C/C(=O)NC2=C(O)CCC2=O)[C@@H]2O[C@@H]2C1=O | MEL-JUSO | CellTiter-Glo | – | 78 h | – | GI50 | 24 µM
COc1ccc(NC(=S)N/N=C/c2cccc3cc4ccccc4nc23)cc1 | HeLa | TMRE flow cytometry | – | IC50, 48 h, unit not given | relative to: DMSO control | mitochondrial membrane potential | 1.8 ± 0.56
O=P1(C2CCCCC2)CCCCC1 | SW-620 | trypan blue | – | IC50, 72 h | relative to: untreated | reduction of cell number | 56 to 60%
CCn1cc(-c2cc(Cn3ccoc3=N)cc3c2CCN([C@@H](C)c2cc(OC)ccn2)C3=O)c(C(F)(F)F)n1 | SNU-16 | cell growth, inhibitor | – | 120 h | – | EC50 | 1.3 µM
C=Cc1c2[n-]c(c1C)/C=c1\[n-]/c(c(C)c1C=C)=C\c1[n-]c(c(CCC(=O)O)c1C)/C=c1\[n-]c(c(C)c1CCC(=O)O)=C2.[Sn+4] | SH-SY5Y | RNA-seq, item: PTGS1 mRNA | – | 5 µM, 5 h | relative to: untreated cells | fold change | 3.45
O=C1N(Cc2ccccc2Cl)c2ccccc2C12NN=C(c1ccccc1)S2 (stereo not shown) | H2373 and H2461 mesothelioma | MTT | – | 10 µM, 24 h | – | viability loss | 80 to 90%
COc1cc2ncnc(Nc3ccc(Oc4ccccc4)c(C)c3C)c2cc1OC.Cl | LoVo (KRAS G13D) | cell viability, resazurin | – | 1 µM, 72 h, together with: trametinib 0 nM | relative to: DMSO | average fractional effect | 26%
OCc1ccc(N(Cc2ccc(F)cc2)Cc2ccc(F)cc2)cc1Cl | RBE | cell viability, CellTiter-Glo | – | – | – | IC50 | 2600 nM
CC/C(=N\NC(=O)NCc1cccc(O)c1)c1ccc(O)c(C)c1O | SK-OV-3 | ATP | 2D monolayer culture | 1 µM, 4 days | relative to: untreated | relative cell number | 105%
CCn1cc(-c2cc(Cn3ccnc3)cc3c2CCN([C@H](c2cc(OC)ccn2)C2CC2)C3=O)c(C(F)(F)F)n1 | Raji | cell growth, inhibitor | – | 120 h | – | EC50 | > 30 µM
OCc1ccc(N2CCc3cccc(F)c3C2)cc1Cl | RBE | cell viability, CellTiter-Glo | – | – | – | IC50 | 170 nM
CSCC[C@H](NC(=O)[C@H](Cc1ccc(OS(=O)(=O)O)cc1)NC(=O)[C@@H](N)CC(=O)O)C(=O)NCC(=O)N[C@@H](Cc1c[nH]c2ccccc12)C(=O)N[C@@H](CCSC)C(=O)N[C@@H](CC(=O)O)C(=O)N[C@@H](Cc1ccccc1)C(N)=O | HEK293T control virus | agonist, GloSensor cAMP | – | 10000 nM, no receptor expressed | higher = more cAMP | cAMP accumulation | 0.183 a.u.

SMILES | cell line | test | test system | conditions | scale | quantity | value
Cn1c(Nc2nc3ccc(C(F)(F)F)cc3s2)nc2cc(C(=O)NCCOCCO)ccc21 | SH-SY5Y | RNA-seq, item: TGFB1I1 mRNA | – | 5 µM, 5 h | relative to: untreated cells | fold change | 2.12
NC(=O)NOCCCCCCCCCCCCCCCCCCCC[P+](c1ccccc1)(c1ccccc1)c1ccccc1.O=C([O-])C(F)(F)F | HCT-116 | cell growth, live-cell imaging | – | 0.5 µM, control at 90% confluence | – | cell confluence | 7.67 ± 0.98%
CC(C)n1nc(-c2cc3cc(O)ccc3[nH]2)c2c(N)ncnc21 | hiPSC-derived cardiomyocytes (iCell) | impedance (xCELLigence Cardio) | – | concentration not given, 2 h | relative to: control | beat rate | 81.7%
Cc1cccc(C)c1-n1nc(C)c(C(=O)Nc2ccc3ccccc3n2)c1C | Wnt-HEK293 | Wnt/β-catenin signalling, inhibitor, luciferase reporter | – | 1 µM | – | inhibition | < 50%
CCCCc1nc(Cl)c(CO)n1Cc1ccc(-c2ccccc2-c2nn[nH]n2)cc1 | human PBMC | RNA-seq, item: KREMEN1 mRNA | – | 10 µg/mL, 24 h | relative to: untreated control | log2 fold change | 2.01
Nc1cccc2c1C(=O)N(C1CCC(=O)NC1=O)C2=O (stereo not shown) | MM1.S | XTT | – | 0.6 µM | relative to: untreated | viability | 39%
CC(C)NCC(O)c1ccc(O)c(O)c1 (stereo not shown) | mouse ventricular cardiomyocytes | – | – | dose not given, 0.023 s | – | sarcomere length | 1.8 µm
COc1cnc2cccc(N3CCc4c(cc(Cn5ccnc5C)cc4-c4cn(C)nc4C(F)(F)F)C3=O)c2c1 | SU-DHL-4 | cell growth, inhibitor | – | 120 h | – | EC50 | 5.71 µM
NC(=O)NOCCCCCCCCCC[P+](c1ccccc1)(c1ccccc1)c1ccccc1.O=C([O-])C(F)(F)F | HCT-116 | cell growth, live-cell imaging | – | 15 µM, control at 90% confluence | – | cell confluence | 8.68%
COc1cc(/C=C/C(=O)N2CCC=CC2=O)cc(OC)c1OC | MDA-MB-468 cells | quantitative RT-PCR, item: GSTZ1 | – | 30 µM, 6 h | relative to: time zero | mRNA level | 114 ± 8.1%
COc1cnccc1Cn1nc(-c2ccc(CO)o2)c2ccccc21 | RBE | cell viability, CellTiter-Glo | – | – | – | IC50 | 210 nM
COc1ccc2c(N(C)c3ccc(/C(C)=N/OCCN)cc3)c3c(Cl)coc3nc2c1 | VCaP-AI | trypan blue exclusion | – | 1 µM, 72 h, SR conditions | – | growth inhibition | 80 to 90% and 70 to 80%
NC(=O)NOCCCCCCCCCCCCCCCC[P+](c1ccccc1)(c1ccccc1)c1ccccc1.O=C([O-])C(F)(F)F | HCT-116 | cell growth, live-cell imaging | – | 0.3 µM, control at 90% confluence | – | cell confluence | 81.1%
CCN(CC)CCCC(C)Nc1ccnc2cc(Cl)ccc12 (stereo not shown) | hiPSC-derived cardiomyocytes | perforated patch voltage clamp | – | 5 µM, depolarization to +10 mV | – | peak L-type calcium current | 58.9 pA and 112 pA and 3.1 pA and 29.3 pA and 293 pA
CC(=O)O[C@@]12CO[C@@H]1C[C@H](O)[C@@]1(C)C(=O)[C@H](O)C3=C(C)[C@@H](OC(=O)[C@H](O)[C@@H](NC(=O)OC(C)(C)C)c4ccccc4)C[C@@](O)([C@@H](OC(=O)c4ccccc4)[C@H]21)C3(C)C | 4T1 | flow cytometry | – | concentration not given | relative to: PBS | CD44-positive cells | 7 fold
Cc1ccccc1Cn1nc(-c2ccc(CO)o2)c2ccccc21 | RBE | cell viability, CellTiter-Glo | – | – | – | IC50 | 1370 nM
CC/C(=N\NC(=O)C(C)Nc1ccccc1)c1ccc(O)c(C)c1O (stereo not shown) | SK-OV-3 | Western blot, item: phospho-YAP | – | 10 µM, 1 h, 3D gellan gum culture, unit not given | relative to: total YAP | protein level | 0.33 ± 0.14
Cc1ccc(NC(=O)c2ccc(CN3CCN(C)CC3)cc2)cc1Nc1nc(-c2cccnc2)cs1 | hiPSC-derived cardiomyocytes (iCell) | impedance (xCELLigence Cardio) | – | concentration not given, 2 h | relative to: control | beat rate | 99.5%
OCc1ccc(-c2nn(Cc3ccccc3Cl)c3ccccc23)o1 | RBE | cell viability, CellTiter-Glo | – | – | – | IC50 | 1420 nM
C=CC1=C(C)c2cc3[n-]c(cc4nc(cc5[n-]c(cc1n2)c(C)c5C=C)C(C)=C4CCC(=O)O)c(CCC(=O)O)c3C.[Zn+2] | SH-SY5Y | RNA-seq, item: ZYX | – | 5 µM, 5 h | relative to: untreated | log2 fold change | 1.9
O=C(C[C@@H](C(F)F)n1ccc(F)n1)N1CCC(O)(Cn2cnc3c(cnn3-c3ccc(F)cc3)c2=O)CC1 | CHP-212 resistant | annexin V/PI flow cytometry | – | 1 µM, 48 h | – | late apoptotic cells | 6.4% and 9.95% and 7.07%
OCc1ccc(-c2nn(Cc3ccc(F)cc3)c3ccccc23)o1 | RBE | cell viability, CellTiter-Glo | – | – | – | IC50 | 1270 nM
COc1cc(Oc2ccnc3cc(OC)c(OC)cc23)ccc1NC(=O)NC(C)c1nccs1 (stereo not shown) | hiPSC-derived cardiomyocytes (iCell) | impedance | – | concentration not given, 24 h | relative to: control | cell index | 102%
O=C(Nc1nnc2n3c(=S)[nH][nH]c3nc(-c3ccc(Cl)cc3)c1-2)c1ccccc1 | NCI-H322M | SRB | – | 10 µM, NCI60 single-dose screen | relative to: untreated | cell growth | 98.6%
CC[C@H](CO)Nc1nc(NCc2ccc(-c3ccccn3)cc2)c2ncn(C(C)C)c2n1 | NCI60 tumour cell lines | – | – | – | – | TGI | 2.57 µM
COc1ccc(-n2nc(C(C)=O)s/c2=N\N=C(/C)c2ccc(NC(=O)c3ccc(Cl)cc3)cc2)cc1 | MCF7 | – | – | 1.25 µM | – | toxicity | 91.2%
